# Experimental data collected from several papers.
# Each line is one published result; not all experiments were run side by side. ± gives the spread as reported.
# Organism: Plasmodium falciparum
SMILES,effect on,technique,strain,time,notes,IC50
COC1=CC(c2ccc[nH]2)=NC1=CNC1CCCCCC1,parasite growth,,"7G8, chloroquine-resistant",,,0.015 µM
c1cncc(CCCOCCCCCCCCCCOC2CCCCO2)c1 (stereo not shown),,anti-HRPII ELISA,W2 chloroquine-resistant,72 h,,14 ± 0.6 µM
COc1cc(O)c(-c2ccc(OC)c3c(O)cc(C)c(-c4cc(-c5c(O)cc(OC)c6c5C[C@@H](C)N[C@@H]6C)c5cc(C)cc(OC)c5c4O)c23)c2c1[C@@H](C)N(C)[C@H](C)C2,parasite growth,,K1,,"drug-resistant strain, blood stage",0.026 µM
COc1cc2c3cc1Oc1cc(ccc1O)CC1c4c(cc(OC)c(O)c4Oc4ccc(cc4)CC3N(C)CC2)CCN1C (stereo not shown),parasite growth,SYBR Green I,Cam3.1 R539T (MRA-1240),,,> 1 µM
Cc1c(-c2ccc[nH]2)c[nH]c1C=NC12CC3CC(CC(C3)C1)C2,parasite growth,,"Dd2, chloroquine-resistant",,,> 2.5 µM
CC[C@H](C)[C@@H]1NC(=O)[C@@H]2CSSC[C@H](NC(=O)[C@H](Cc3ccccc3)NC(=O)[C@@H]3CSSC[C@H](NC1=O)C(=O)N[C@@H](CC(C)C)C(=O)N[C@@H](C)C(=O)NCCCC[C@@H](NC(=O)[C@@H](Cc1ccccc1)NC(=O)[C@@H](CC(C)C)NC(=O)[C@@H]1CCCN1C(=O)[C@@H](CC(C)C)NC(=O)[C@@H](Cc1ccccc1)NC(=O)[C@@H](CCC(=O)O)NC(=O)[C@@H](C)NC(=O)[C@@H](Cc1ccccc1)NC(=O)[C@H](N)C(C)C)C(=O)N3)C(=O)N[C@@H]([C@@H](C)O)C(=O)N[C@@H](CCCNC(=N)N)C(=O)N[C@@H](CCSC)C(=O)N[C@@H](CO)C(=O)N1CCC[C@H]1C(=O)N1CCC[C@H]1C(=O)N[C@@H](CCC(N)=O)C(=O)N2,parasite growth,,3D7,two cycles,,~0.052 µM
COC1=CC(c2ccc[nH]2)=NC1=CNC1CCCC1,parasite growth,,"7G8, chloroquine-resistant",,,0.045 µM
CC[C@H](C)[C@@H]1NC(=O)[C@H](CCCCN)NC(=O)[C@H](CCCCN)NC(=O)[C@H](Cc2ccc(O)cc2)NC(=O)[C@H](CC(C)C)NC(=O)[C@@H]2CCCN2C(=O)[C@H](C)NC(=O)CNC(=O)CNC(=O)[C@H](CO)NC(=O)CNC(=O)CNC(=O)[C@H](CO)NC(=O)[C@H](CCC(=O)O)NC(=O)[C@H](CC(C)C)NC(=O)[C@H](CC(C)C)NC(=O)[C@H](CCCCN)NC(=O)[C@H](CCCCN)NC(=O)[C@H]([C@@H](C)CC)NC(=O)[C@H]([C@@H](C)CC)NC(=O)[C@H](CCCCN)NC(=O)[C@H](CCCCN)NC(=O)[C@H](Cc2ccc(O)cc2)NC(=O)[C@H](CC(C)C)NC(=O)[C@@H]2CCCN2C(=O)[C@H](C)NC(=O)CNC(=O)[C@@H]2CSSC[C@H](NC(=O)[C@H](CC(C)C)NC(=O)[C@H](CCCCN)NC(=O)[C@H](CCCCN)NC(=O)[C@H]([C@@H](C)CC)NC1=O)C(=O)N[C@@H](CCC(=O)O)C(=O)N[C@@H](CC(N)=O)C(=O)NCC(=O)N2,parasite growth,,3D7,72 h,5% serum plus Albumax II,~27 µM
CC(C)(C)c1cc(CN(Cc2ccccn2)Cc2ccccn2)c(O)c(CN(Cc2ccccn2)Cc2ccccn2)c1,growth,[3H]hypoxanthine incorporation,W2 chloroquine-resistant,48 h,,0.221 ± 0.075 µM
O=C(C1CCN(c2nnnn2-c2ccccc2)CC1)N1CCCc2ccccc21,,[3H]hypoxanthine incorporation,7G8,,,0.47 µM
CC[C@H](C)[C@@H]1NC(=O)[C@H](CCCCN)NC(=O)[C@H](CCCCN)NC(=O)[C@H](Cc2ccc(O)cc2)NC(=O)[C@H](CC(C)C)NC(=O)[C@@H]2CCCN2C(=O)[C@H](C)NC(=O)CNC(=O)CNC(=O)[C@H](CO)NC(=O)CNC(=O)CNC(=O)[C@H](CO)NC(=O)[C@H](CCC(=O)O)NC(=O)[C@H](CC(C)C)NC(=O)[C@H](CC(C)C)NC(=O)[C@H](CCCCN)NC(=O)[C@H](CCCCN)NC(=O)[C@H]([C@@H](C)CC)NC(=O)[C@H]([C@@H](C)CC)NC(=O)[C@H](CCCCN)NC(=O)[C@H](CCCCN)NC(=O)[C@H](Cc2ccc(O)cc2)NC(=O)[C@H](CC(C)C)NC(=O)[C@@H]2CCCN2C(=O)[C@H](C)NC(=O)CNC(=O)[C@@H](NC(=O)CN)CSSC[C@@H](C(=O)N[C@@H](CCC(=O)O)C(=O)N[C@@H](CO)C(=O)O)NC(=O)[C@H](CC(C)C)NC(=O)[C@H](CCCCN)NC(=O)[C@H](CCCCN)NC(=O)[C@H]([C@@H](C)CC)NC1=O,parasite growth,,3D7,72 h,"Albumax II medium, no serum",21.6 ± 1.4 µM
Cc1ccc(C(C)C)cc1.Cn1ccnc1CNCCNc1ccnc2cc(Cl)ccc12.[Cl-].[Cl][Ru+],parasite growth,parasite lactate dehydrogenase,D10 chloroquine-sensitive,,,4.53 ± 0.69 µM
CC[C@H](C)[C@@H]1NC(=O)[C@H](CCCCN)NC(=O)[C@H](CCCCN)NC(=O)[C@H](Cc2ccc(O)cc2)NC(=O)[C@H](CC(C)C)NC(=O)[C@@H]2CCCN2C(=O)[C@H](C)NC(=O)CNC(=O)CNC(=O)[C@H](CO)NC(=O)CNC(=O)CNC(=O)[C@H](CO)NC(=O)[C@H](CCCCN)NC(=O)[C@H](CC(C)C)NC(=O)[C@H](CC(C)C)NC(=O)[C@H](CCCCN)NC(=O)[C@H](CCCCN)NC(=O)[C@H]([C@@H](C)CC)NC(=O)[C@H]([C@@H](C)CC)NC(=O)[C@H](CCCCN)NC(=O)[C@H](CCCCN)NC(=O)[C@H](Cc2ccc(O)cc2)NC(=O)[C@H](CC(C)C)NC(=O)[C@@H]2CCCN2C(=O)[C@H](C)NC(=O)CNC(=O)CNC(=O)[C@H](CO)NC(=O)CNC(=O)CNC(=O)[C@H](CO)NC(=O)[C@H](CCC(=O)O)NC(=O)[C@H](CC(C)C)NC(=O)[C@H](CC(C)C)NC(=O)[C@H](CCCCN)NC(=O)[C@H](CCCCN)NC(=O)[C@H]([C@@H](C)CC)NC1=O,parasite growth,,3D7,72 h,"Albumax II medium, no serum",3.5 ± 0.4 µM
COC(=O)[C@@H]1Cc2c([nH]c3ccccc23)[C@H](c2cccnc2)N1,parasite growth,,,48 h,"drug-resistant strain, blood stage",5.22 mg/L
COC1=CC(c2ccc[nH]2)=NC1=CNC1CCCCC1,parasite growth,,"7G8, chloroquine-resistant",,,0.03 µM
CN(C)c1ncnc2c1c(-c1ccc(Oc3ccccc3)cc1)cn2C1CCCC1,merozoite invasion of erythrocytes,,FVO,,,6 µM
CCc1c(C)[nH]c(C=NC23CC4CC(CC(C4)C2)C3)c1C,parasite growth,SYBR Green I fluorescence,"D6, chloroquine-sensitive",,,0.033 µM
O=C(C=CC(Cc1ccccc1)Nc1ccnc2cc(Cl)ccc12)NCC(=O)N1CCNCC1 (stereo not shown),parasite growth,,K1,,"drug-resistant strain, blood stage",0.834 µM
CC[C@H](C)[C@@H]1NC(=O)[C@H](CCCCN)NC(=O)[C@H](CCCCN)NC(=O)[C@H](Cc2ccc(O)cc2)NC(=O)[C@H](CC(C)C)NC(=O)[C@@H]2CCCN2C(=O)[C@H](C)NC(=O)CNC(=O)CNC(=O)[C@H](CO)NC(=O)CNC(=O)CNC(=O)[C@H](CO)NC(=O)[C@H](CCC(=O)O)NC(=O)[C@H](CC(C)C)NC(=O)[C@H](CC(C)C)NC(=O)[C@H](CCCNC(=N)N)NC(=O)[C@H](CCCCN)NC(=O)[C@H]([C@@H](C)CC)NC(=O)[C@H]([C@@H](C)CC)NC(=O)[C@H](CCCCN)NC(=O)[C@H](CCCCN)NC(=O)[C@H](Cc2ccc(O)cc2)NC(=O)[C@H](CC(C)C)NC(=O)[C@@H]2CCCN2C(=O)[C@H](C)NC(=O)CNC(=O)CNC(=O)[C@H](CO)NC(=O)CNC(=O)CNC(=O)[C@H](CO)NC(=O)[C@H](CCC(=O)O)NC(=O)[C@H](CC(C)C)NC(=O)[C@H](CC(C)C)NC(=O)[C@H](CCCNC(=N)N)NC(=O)[C@H](CCCCN)NC(=O)[C@H]([C@@H](C)CC)NC1=O,parasite growth,,3D7,72 h,"Albumax II medium, no serum",5.3 ± 0.4 µM
COC1=CC(c2ccc[nH]2)=NC1=CNC1CC1,parasite growth,,"7G8, chloroquine-resistant",,,0.946 µM
CC[C@H](C)[C@@H]1NC(=O)[C@H](CCCCN)NC(=O)[C@H](CCCCN)NC(=O)[C@H](Cc2ccc(O)cc2)NC(=O)[C@H](CC(C)C)NC(=O)[C@@H]2CCCN2C(=O)[C@H](C)NC(=O)CNC(=O)CNC(=O)[C@H](CO)NC(=O)CNC(=O)CNC(=O)[C@H](CO)NC(=O)[C@H](CCC(=O)O)NC(=O)[C@H](CC(C)C)NC(=O)[C@H](CC(C)C)NC(=O)[C@H](CCCCN)NC(=O)[C@H](CCCCN)NC(=O)[C@H]([C@@H](C)CC)NC(=O)[C@H]([C@@H](C)CC)NC(=O)[C@H](CCCCN)NC(=O)[C@H](CCCCN)NC(=O)[C@H](Cc2ccc(O)cc2)NC(=O)[C@H](CC(C)C)NC(=O)[C@@H]2CCCN2C(=O)[C@H](C)NC(=O)CNC(=O)[C@@H]2CSSC[C@H](NC(=O)[C@H](CC(C)C)NC(=O)[C@H](CCCCN)NC(=O)[C@H](CCCCN)NC(=O)[C@H]([C@@H](C)CC)NC1=O)C(=O)N[C@@H](CCCCN)C(=O)N[C@@H](CC(N)=O)C(=O)NCC(=O)N2,parasite growth,,3D7,72 h,"Albumax II medium, no serum",13.1 ± 1 µM
CCC1=CC(c2ccc[nH]2)=NC1=CNC12CC3CC(CC(C3)C1)C2,parasite growth,,"Dd2, chloroquine-resistant",,,0.016 µM
O=C(O)[C@@H]1Cc2c([nH]c3ccccc23)[C@@H](c2ccc(F)cc2I)N1,parasite growth,,Dd2,72 h,,0.97 ± 0.18 µM
CC[C@H](C)[C@@H]1NC(=O)[C@H](CCCCN)NC(=O)[C@H](CCCCN)NC(=O)[C@H](Cc2ccc(O)cc2)NC(=O)[C@H](CC(C)C)NC(=O)[C@@H]2CCCN2C(=O)CNC(=O)CNC(=O)[C@@H](NC(=O)CN)CSSC[C@@H](C(=O)N[C@@H](CCCCN)C(=O)N[C@@H](CO)C(N)=O)NC(=O)[C@H](CC(C)C)NC(=O)[C@H](CCCCN)NC(=O)[C@H](CCCCN)NC(=O)[C@H]([C@@H](C)CC)NC(=O)[C@H]([C@@H](C)CC)NC(=O)[C@H](CCCCN)NC(=O)[C@H](CCCCN)NC(=O)[C@H](Cc2ccc(O)cc2)NC(=O)[C@H](CC(C)C)NC(=O)[C@@H]2CCCN2C(=O)[C@H](C)NC(=O)CNC(=O)CNC(=O)[C@H](CO)NC(=O)CNC(=O)CNC(=O)[C@H](CO)NC(=O)[C@H](CCCCN)NC(=O)[C@H](CC(C)C)NC(=O)[C@H](CC(C)C)NC(=O)[C@H](CCCCN)NC(=O)[C@H](CCCCN)NC(=O)[C@H]([C@@H](C)CC)NC1=O,parasite growth,,3D7,72 h,5% serum plus Albumax II,10.2 ± 0.6 µM
COc1ccc2nc3cc(Cl)ccc3c(NCCN3C(=O)c4ccc5c6c(ccc(c46)C3=O)C(=O)N(CCN(C)C)C5=O)c2c1,parasite growth,SYBR Green,W2,72 h,"drug-resistant strain, blood stage",0.0285 µM
CCCCN=Cc1[nH]c(-c2ccc[nH]2)cc1OC,parasite growth,,"7G8, chloroquine-resistant",,,0.0746 µM
C[C@@H](C[C@@H](O)[C@H](O)C(C)(C)O)[C@@H]1CC[C@]2(C)C3=CC[C@H]4C(C)(C)[C@@H](O)CC[C@]4(C)[C@H]3CC[C@@]12C,,[3H]hypoxanthine incorporation,"W2, chloroquine-resistant",,,37.2 ± 3.2 µM
COc1ccc2cc1Oc1cc3c(cc1OC)CCN(C)C3Cc1ccc(cc1)Oc1c(O)c(OC)cc3c1C(C2)N(C)CC3 (stereo not shown),parasite growth,SYBR green I,INDO,,,0.47 ± 0.0779 µM
COc1cc(O)c(-c2cc(-c3cc(-c4c(O)cc5c(c4OC)[C@H](C)N[C@H](C)C5)c4cc(C)cc(OC)c4c3O)c(O)c3c(OC)cc(C)cc23)c2c1[C@H](C)N[C@H](C)C2,parasite growth,SYBR Green,W2,96 h,"drug-resistant strain, blood stage",0.134 µM
N#Cc1c(-c2ccco2)[n+]([O-])c2ccccc2[n+]1[O-],parasite growth,[3H]hypoxanthine incorporation,K1 chloroquine-resistant,,,0.63 ± 0.18 µM
CC1(c2ccc(F)cc2F)OOC2(CCN(C(=O)c3ccccc3)CC2)OO1,parasite growth,imaging,3D7,48 h,blood stage,0.0105 µM
